Published values collected from several papers.
Each line is one published result; not all experiments were run side by side. ± marks the error that the study gave.
Cell line: U-87 MG

COc1ccc(-c2cc(=O)c3c(O)cc(O[C@@H]4O[C@H](CO)[C@@H](O)[C@H](O)[C@H]4O)cc3o2)cc1OC
IC50 (cell growth or viability, resazurin; 72 h): 33.5 µM

CCCCCCCCCCOc1c(O)cc(C(=O)OC2Cc3c(O)cc(O)cc3OC2c2cc(O)c(O)c(O)c2)cc1O (stereo not shown)
LC3-II conversion (western blot; 50 µM, 24 h, together with: chloroquine 20 µM): no effect

O=c1sn(Cc2ccccc2)c(=O)n1C1CC1
IC50 (cell viability; 72 h): 7.2 ± 0.4 µM

COc1c(Oc2c(O)c(OC)c(OC)c3c2ccc2cc(O)ccc23)cc2c(c1OC)-c1ccc(O)cc1CC2
IC50 (cell growth or viability, CCK-8; 24 h): 19.9 µM

CC1(C)CC(=O)C(C2C([N+](=O)[O-])=C3NCCN3c3nc4ccccc4cc32)=C(O)C1 (stereo not shown)
IC50 (cell growth or viability, MTT; 24 h): 18.9 µM

CC1(C)C(/C=C/C2=C(Cl)C(=C/C=C3/N(CCCCCC(=O)O)c4ccccc4C3(C)C)/C[N+](C)(C)C2)=[N+](CCCCCC(=O)O)c2ccccc21
Pearson's correlation coefficient (organelle co-localization, confocal imaging; 20 µM, 24 h, mitochondria): 0.56

O=C(O[C@@H]1Cc2c(O)cc(O)cc2O[C@@H]1c1cc(O)c(O)c(O)c1)c1cc(O)c(O)c(O)c1
IC50 (cell viability, CCK-8; 24 h): 61.36 ± 0.05 µM

C=C1C(=O)OC2CC3=C[C@@H](C/C(C)=C/C(OC(=O)Cc4cccc5ccccc45)[C@H]12)OC3=O (stereo partly shown)
IC50 (cell growth or viability, MTT; 24 h): 0.34 µM

C=C1C(=O)OC2C1CCC1(C)CC1CCC1(C)OC21 (stereo not shown)
IC50 (cell growth or viability, resazurin): 11.6 µM

CC(=O)O[C@H]1C(=O)[C@]2(C)[C@@H](OC(=O)[C@H](N)CSC3CC(=O)N(CCC(=O)Nc4ccc(-c5ccc(/N=N/c6ccc7c(S(=O)(=O)O)cc(S(=O)(=O)O)c(N)c7c6O)c(C)c5)cc4C)C3=O)C[C@H]3OC[C@@]3(OC(C)=O)[C@H]2[C@H](OC(=O)c2ccccc2)[C@]2(O)C[C@H](OC(=O)[C@H](O)[C@@H](NC(=O)c3ccccc3)c3ccccc3)C(C)=C1C2(C)C (stereo partly shown)
late apoptotic cells (annexin V/PI flow cytometry; concentration not given, 24 h): 13.2%

CCCCCCCCCCCCOc1c(O)cc(C(=O)OC2Cc3c(O)cc(O)cc3OC2c2cc(O)c(O)c(O)c2)cc1O (stereo not shown)
phosphorylation level (Western blot, measured: phospho-AKT; 50 µM, 24 h; baseline: untreated): decreased

Cc1ccc(C(C)C)cc1.Cl.[Cl][Ru+].[Ru+].c1ccc(-c2cn(CCCCOc3ccccc3-c3nc4ccccc4s3)nn2)nc1
IC50 (cytotoxicity, MTT; 48 h): 63.3 ± 2.6 µM

CCCCCCCCCCCCCCOc1c(O)cc(C(=O)O[C@@H]2Cc3c(O)cc(O)cc3O[C@@H]2c2cc(O)c(O)c(O)c2)cc1O
phosphorylation level (Western blot, measured: phospho-AKT; 50 µM, 24 h; baseline: untreated): decreased

COc1c(O)c(-c2c(O)c(OC)c(OC)c3c2ccc2cc(O)ccc23)c2c(c1OC)-c1ccc(O)cc1CC2
viability (cell growth or viability, CCK-8; 100 µM, 24 h): 11.9%

C=C(C)[C@@H]1CC[C@]2(COC(=O)CCC(=O)O)CC[C@]3(C)[C@H](CC[C@@H]4[C@@]5(C)CC[C@H](OC(=O)CCC(=O)O)C(C)(C)[C@@H]5CC[C@]43C)[C@@H]12
IC50 (cell growth or viability, SRB; 72 h): 7.37 µg/mL

CCN(CC)CCNC(=O)c1c(C)[nH]c(/C=C2\C(=O)Nc3ccc(F)cc32)c1C
IC50 (cell growth or viability, MTT; 72 h): 8.5 µM

For quick reference, copied from above:
O=c1sn(Cc2ccccc2)c(=O)n1C1CC1
IC50 (cell viability; 72 h): 7.2 ± 0.4 µM

COc1ccc(-c2cc(=O)c3c(O)cc(O[C@@H]4O[C@H](CO)[C@@H](O)[C@H](O)[C@H]4O)cc3o2)cc1OC
IC50 (cell growth or viability, resazurin; 72 h): 33.5 µM
